Measured values from different studies.
Compare with care: the assays were run in different laboratories. ± gives the spread as reported.
POLB: DNA polymerase beta (POLB, Homo sapiens, UniProt P06746)
T1: G-quadruplex RNA, benzofuranyl uridine in loop (Homo sapiens); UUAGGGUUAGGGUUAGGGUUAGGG
Sequence of UniProt P05067 (whole entry, looked up): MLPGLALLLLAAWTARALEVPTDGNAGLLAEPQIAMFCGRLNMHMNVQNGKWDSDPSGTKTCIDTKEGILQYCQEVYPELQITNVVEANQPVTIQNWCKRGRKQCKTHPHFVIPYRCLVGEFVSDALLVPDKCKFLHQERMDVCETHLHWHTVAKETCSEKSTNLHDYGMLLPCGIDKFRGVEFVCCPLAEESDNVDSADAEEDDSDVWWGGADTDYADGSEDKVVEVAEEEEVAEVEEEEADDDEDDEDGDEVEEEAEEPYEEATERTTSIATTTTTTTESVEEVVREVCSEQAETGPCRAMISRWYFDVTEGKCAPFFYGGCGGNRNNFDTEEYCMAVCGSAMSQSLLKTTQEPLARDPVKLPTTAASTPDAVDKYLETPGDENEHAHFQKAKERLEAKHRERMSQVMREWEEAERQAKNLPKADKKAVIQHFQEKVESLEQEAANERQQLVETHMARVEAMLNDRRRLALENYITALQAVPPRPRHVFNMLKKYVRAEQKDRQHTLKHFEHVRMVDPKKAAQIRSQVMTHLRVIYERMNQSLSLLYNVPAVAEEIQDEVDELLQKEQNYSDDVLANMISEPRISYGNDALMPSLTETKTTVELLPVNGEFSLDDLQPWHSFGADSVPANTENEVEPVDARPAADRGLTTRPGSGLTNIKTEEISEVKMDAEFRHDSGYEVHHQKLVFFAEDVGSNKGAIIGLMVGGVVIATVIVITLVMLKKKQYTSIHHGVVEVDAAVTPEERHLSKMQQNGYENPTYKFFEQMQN
Sequence of UniProt Q86SQ4 (whole entry, looked up): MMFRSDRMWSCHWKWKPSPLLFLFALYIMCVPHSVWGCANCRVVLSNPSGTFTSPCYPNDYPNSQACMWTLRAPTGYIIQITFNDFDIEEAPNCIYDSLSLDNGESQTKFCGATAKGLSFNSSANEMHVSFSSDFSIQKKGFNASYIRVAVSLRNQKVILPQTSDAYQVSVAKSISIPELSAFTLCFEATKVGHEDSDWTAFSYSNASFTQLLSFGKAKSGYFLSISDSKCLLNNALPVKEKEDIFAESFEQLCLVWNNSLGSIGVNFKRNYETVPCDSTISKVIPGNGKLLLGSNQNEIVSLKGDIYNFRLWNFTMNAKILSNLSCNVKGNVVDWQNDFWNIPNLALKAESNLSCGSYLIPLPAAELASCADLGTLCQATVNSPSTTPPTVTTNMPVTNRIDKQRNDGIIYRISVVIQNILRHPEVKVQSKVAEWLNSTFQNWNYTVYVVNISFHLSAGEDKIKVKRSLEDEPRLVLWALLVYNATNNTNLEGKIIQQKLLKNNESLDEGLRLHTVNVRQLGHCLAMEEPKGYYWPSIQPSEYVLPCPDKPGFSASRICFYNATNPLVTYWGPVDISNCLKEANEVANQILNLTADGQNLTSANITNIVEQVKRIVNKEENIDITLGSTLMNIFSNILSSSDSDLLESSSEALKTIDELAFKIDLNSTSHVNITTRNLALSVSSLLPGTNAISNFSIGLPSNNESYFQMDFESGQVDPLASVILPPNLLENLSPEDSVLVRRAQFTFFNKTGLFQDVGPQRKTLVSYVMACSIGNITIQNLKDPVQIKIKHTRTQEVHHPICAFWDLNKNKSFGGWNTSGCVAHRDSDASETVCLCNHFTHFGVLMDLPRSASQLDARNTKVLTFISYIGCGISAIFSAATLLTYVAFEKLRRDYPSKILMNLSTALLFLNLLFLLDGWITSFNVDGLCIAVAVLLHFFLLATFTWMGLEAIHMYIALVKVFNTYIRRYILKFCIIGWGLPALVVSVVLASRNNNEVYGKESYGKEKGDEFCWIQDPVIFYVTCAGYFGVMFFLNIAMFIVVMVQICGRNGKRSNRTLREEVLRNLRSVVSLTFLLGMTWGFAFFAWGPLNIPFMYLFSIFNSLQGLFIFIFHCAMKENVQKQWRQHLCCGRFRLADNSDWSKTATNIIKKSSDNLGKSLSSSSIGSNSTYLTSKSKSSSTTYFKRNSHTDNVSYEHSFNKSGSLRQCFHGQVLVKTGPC
Sequence of UniProt Q92851 (whole entry, looked up): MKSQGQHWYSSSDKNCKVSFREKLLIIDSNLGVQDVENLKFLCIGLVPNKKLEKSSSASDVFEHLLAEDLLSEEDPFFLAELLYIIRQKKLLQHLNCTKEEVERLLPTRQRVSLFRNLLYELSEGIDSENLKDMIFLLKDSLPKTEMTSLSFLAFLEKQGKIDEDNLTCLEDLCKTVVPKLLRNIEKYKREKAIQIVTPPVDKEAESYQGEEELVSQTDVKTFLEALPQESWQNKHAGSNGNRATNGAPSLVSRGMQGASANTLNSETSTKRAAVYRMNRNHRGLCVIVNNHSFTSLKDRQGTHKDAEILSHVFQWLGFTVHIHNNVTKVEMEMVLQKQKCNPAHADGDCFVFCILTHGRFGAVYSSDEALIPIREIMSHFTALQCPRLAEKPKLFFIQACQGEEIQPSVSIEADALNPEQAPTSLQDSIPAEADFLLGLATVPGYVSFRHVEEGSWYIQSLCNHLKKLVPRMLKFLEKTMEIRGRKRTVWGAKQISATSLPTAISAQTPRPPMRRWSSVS
Sequence of UniProt Q9HBW0 (whole entry, looked up): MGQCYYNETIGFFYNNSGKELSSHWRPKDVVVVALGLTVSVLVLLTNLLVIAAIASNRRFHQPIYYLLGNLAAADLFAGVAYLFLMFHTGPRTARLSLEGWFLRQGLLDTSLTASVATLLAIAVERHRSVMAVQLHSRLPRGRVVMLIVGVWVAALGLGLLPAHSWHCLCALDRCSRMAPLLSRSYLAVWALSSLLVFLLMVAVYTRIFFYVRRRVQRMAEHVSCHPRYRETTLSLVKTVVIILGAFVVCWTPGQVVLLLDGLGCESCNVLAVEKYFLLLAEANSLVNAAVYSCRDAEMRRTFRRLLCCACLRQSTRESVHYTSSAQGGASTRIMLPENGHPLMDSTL
Sequence of UniProt P97438 (whole entry, looked up): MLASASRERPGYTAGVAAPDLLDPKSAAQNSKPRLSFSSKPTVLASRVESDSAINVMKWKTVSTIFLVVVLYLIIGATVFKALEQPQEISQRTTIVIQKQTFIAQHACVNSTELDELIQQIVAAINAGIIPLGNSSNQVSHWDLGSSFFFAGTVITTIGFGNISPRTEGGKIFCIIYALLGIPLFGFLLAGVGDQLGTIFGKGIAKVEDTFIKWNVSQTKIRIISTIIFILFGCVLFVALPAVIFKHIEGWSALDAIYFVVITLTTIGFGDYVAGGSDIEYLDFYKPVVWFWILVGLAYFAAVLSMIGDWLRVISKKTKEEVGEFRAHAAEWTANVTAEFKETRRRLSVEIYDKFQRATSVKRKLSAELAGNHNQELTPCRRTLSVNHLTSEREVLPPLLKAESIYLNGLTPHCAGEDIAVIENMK
Sequence of UniProt P23204 (whole entry, looked up): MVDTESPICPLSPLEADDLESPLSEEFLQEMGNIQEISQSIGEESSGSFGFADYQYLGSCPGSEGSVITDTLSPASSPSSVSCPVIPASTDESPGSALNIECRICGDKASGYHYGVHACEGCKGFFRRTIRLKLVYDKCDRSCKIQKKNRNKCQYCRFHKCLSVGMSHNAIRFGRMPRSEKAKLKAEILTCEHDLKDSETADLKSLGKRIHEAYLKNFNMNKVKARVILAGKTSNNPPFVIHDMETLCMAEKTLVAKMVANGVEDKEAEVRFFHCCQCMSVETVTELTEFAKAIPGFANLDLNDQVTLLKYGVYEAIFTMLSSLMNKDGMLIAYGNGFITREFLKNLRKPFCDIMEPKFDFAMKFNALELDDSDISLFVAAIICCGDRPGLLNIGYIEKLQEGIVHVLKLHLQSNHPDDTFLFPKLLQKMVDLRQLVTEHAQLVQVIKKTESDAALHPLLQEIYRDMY
Sequence of UniProt P28336 (whole entry, looked up): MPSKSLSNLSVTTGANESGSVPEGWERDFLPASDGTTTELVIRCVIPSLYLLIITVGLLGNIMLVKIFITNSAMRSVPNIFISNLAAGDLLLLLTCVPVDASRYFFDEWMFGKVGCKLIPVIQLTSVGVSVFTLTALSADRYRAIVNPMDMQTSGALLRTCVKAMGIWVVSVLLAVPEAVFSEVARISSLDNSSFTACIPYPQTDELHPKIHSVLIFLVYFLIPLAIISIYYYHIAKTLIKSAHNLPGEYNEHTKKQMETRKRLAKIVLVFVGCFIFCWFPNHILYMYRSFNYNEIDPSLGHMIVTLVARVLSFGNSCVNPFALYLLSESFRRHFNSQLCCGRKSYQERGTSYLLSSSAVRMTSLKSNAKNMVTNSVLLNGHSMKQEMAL
Sequence of UniProt P47872 (whole entry, looked up): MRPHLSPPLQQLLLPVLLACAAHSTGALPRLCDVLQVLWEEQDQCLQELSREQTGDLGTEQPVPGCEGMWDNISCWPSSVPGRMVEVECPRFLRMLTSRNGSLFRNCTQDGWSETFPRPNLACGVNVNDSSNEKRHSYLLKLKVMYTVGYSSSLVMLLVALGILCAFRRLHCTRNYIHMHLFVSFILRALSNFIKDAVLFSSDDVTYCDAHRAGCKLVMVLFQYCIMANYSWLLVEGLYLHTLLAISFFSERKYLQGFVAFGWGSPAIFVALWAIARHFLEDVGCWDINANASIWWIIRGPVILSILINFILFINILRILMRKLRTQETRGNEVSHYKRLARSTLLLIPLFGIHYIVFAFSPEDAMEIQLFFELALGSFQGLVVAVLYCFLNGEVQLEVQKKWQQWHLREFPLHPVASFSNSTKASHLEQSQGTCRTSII

Compound	target	assay	system	conditions	how to read	endpoint	value
[123I]c1ccc2nc(-c3ccc(-n4ccnn4)nc3)cn2c1	Amyloid-beta precursor protein, amyloid-beta (APP, Homo sapiens, UniProt P05067)	SPECT	Alzheimer's disease patients, anterior cingulate	150 to 240 min	relative to: cerebellum	SUVR	1.28 ± 0.3
CCCCCCCC/C=C\CCCCCCCC(=O)O[C@H]1C=CCO[C@H]1COP(=O)(O)S (some centres unmarked)	Lysophosphatidic acid receptor 2 (LPAR2, Homo sapiens, UniProt Q9HBW0)	agonist, TGFα shedding				Emax	26%
CC(=O)OC[C@H]1O[C@@H](Oc2cc(OC(C)=O)cc3oc(C)cc(=O)c23)[C@H](OC(C)=O)[C@@H](OC(C)=O)[C@@H]1OC(C)=O	Peroxisome proliferator-activated receptor alpha (Ppara, Mus musculus, UniProt P23204)	reporter gene, agonist, luciferase	HepG2	50 µg/mL		induction	2.25
Cc1cn([C@H]2C[C@H](O)[C@@H](COP(=O)(O)OP(=O)(O)C(Br)(Br)P(=O)(O)O)O2)c(=O)[nH]c1=O	POLB	nucleotide incorporation rate, substrate, single-turnover kinetics	single-nucleotide gapped DNA	37 °C, wild type, correct incorporation, together with: dTTP opposite template A		kpol	0.25 ± 0.01 s⁻¹
Nc1nc2c(ncn2[C@H]2C[C@H](O)[C@@H](COP(=O)(O)OP(=O)(O)[C@H](F)P(=O)(O)O)O2)c(=O)[nH]1	DNA polymerase beta (POLB, Homo sapiens, UniProt P06746, R183A)	substrate, pre-steady-state kinetics		incorporation opposite dC in gapped DNA		kpol	0.27 s⁻¹
Oc1c(C(Nc2nccs2)c2cccc(OCc3ccccc3)c2)ccc2cccnc12 (centres unmarked)	Genome polyprotein, NS2B-NS3 protease (Dengue virus type 2, UniProt P14340)	enzyme activity, inhibitor		no CHAPS, together with: Bz-Nle-Lys-Arg-Arg-AMC substrate		Hill slope	1.21 ± 0.06
CC(=O)[C@@]1(O)CC[C@H]2[C@@H]3CCC4=CC(=O)CC[C@]4(C)[C@H]3CC[C@@]21C	ADGRG6 (Homo sapiens, UniProt Q86SQ4)		ADGRG6 knockdown cells	concentration not given		cAMP level	no effect
CC(C)C[C@@H](CN[C@@H](Cc1ccc(Cl)cc1)C(N)=O)NC(=O)[C@H](Cc1c[nH]cn1)NC(=O)CNC(=O)[C@@H](NC(=O)[C@H](C)NC(=O)[C@H](Cc1c[nH]c2ccccc12)NC(=O)[C@H](CCC(N)=O)NC(=O)[C@H](N)Cc1ccccc1)C(C)C	Neuromedin-B receptor (NMBR, Homo sapiens, UniProt P28336)	inositol phosphate generation, agonist	NMBR-transfected BALB/3T3		relative to: 1 µM NMB	maximal response	10%
Cc1cn(C2CC(O)C(COP(=O)(O)OP(=O)(O)C(Cl)P(=O)(O)O)O2)c(=O)[nH]c1=O (mixture of isomers)	POLB	nucleotide incorporation rate, substrate, single-turnover kinetics	single-nucleotide gapped DNA	37 °C, wild type, correct incorporation, together with: dTTP opposite template A		kpol	5.9 ± 0.5 s⁻¹
Clc1ccc2c(c1)c1cc(Cl)ccc1n2CCc1nnn[nH]1	Kcnk2 (Mus musculus, UniProt P97438)	ion current, two-electrode voltage clamp	Xenopus oocytes			Hill coefficient	1.2 ± 0.2
CC(=O)N[C@@H](CC(=O)O)C(=O)N[C@@H](CCC(=O)O)C(=O)N[C@H](C(=O)N[C@@H](CC(=O)O)C(=O)Nc1ccc2c(C)cc(=O)oc2c1)C(C)C	Caspase-10 (CASP10, Homo sapiens, UniProt Q92851)	substrate cleavage, substrate, fluorogenic AMC release		enzyme 0.25 activity units/µL		Vmax	476 ± 38.7 RFU/min
NC(=O)CN1C(=O)C(O)(CC(=O)c2cccc(N)c2)c2ccccc21 (centres unmarked)	uncharacterized protein (Leishmania donovani, UniProt A0A3Q8IA09)	competitive ITC		concentration not given, together with: aspartate 60 µM		binding stoichiometry	1.28 ± 0.0583
COc1ccc(-c2cc(C(F)(F)F)nc(SCC(=O)N(C)c3ccccc3)n2)cc1OC	Secretin receptor (SCTR, Homo sapiens, UniProt P47872)	cAMP, agonist				Emax	16%
NCCOc1cc(C(=O)Nc2cc(OCCN)c3ccccc3n2)nc(C(=O)Nc2cc(OCCN)c3ccccc3n2)c1	T1, G-quadruplex RNA, benzofuranyl uridine in loop (Homo sapiens)	fluorescence titration		pH 7.5, 20 °C, KCl 100 mM, apparent, parallel G-quadruplex		Kd	260 nM

Some of these lines once more:
Compound	target	assay	system	conditions	how to read	endpoint	value
Nc1nc2c(ncn2[C@H]2C[C@H](O)[C@@H](COP(=O)(O)OP(=O)(O)[C@H](F)P(=O)(O)O)O2)c(=O)[nH]1	DNA polymerase beta (POLB, Homo sapiens, UniProt P06746, R183A)	substrate, pre-steady-state kinetics		incorporation opposite dC in gapped DNA		kpol	0.27 s⁻¹
